Experimental data of several laboratories.
Parts stem from different laboratories: compare values within a part only.

Series 1
Target: RNA binding protein fox-1 homolog 2, RRM domain, GST-SBP tag (RBFOX2, Homo sapiens, UniProt O43251-10, residues 100-194)
Technique: RNA Bind-n-Seq
Molecule type: RNA
Medium: in vitro
Tested at: 365 nM
Notes: natural RNA segment, single round, ends assumed
Reference: no-protein control
Reading: higher = stronger binding
Constant ends, left off below: GGGAGUUCUACAGUCCGACGAUC … UGGAAUUCUCGGGUGCCAA
Residues (chain): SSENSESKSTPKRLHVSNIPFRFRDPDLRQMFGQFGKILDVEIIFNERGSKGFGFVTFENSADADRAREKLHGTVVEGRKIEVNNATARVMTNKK
Oligonucleotide	RBNS enrichment (R)
CAGAAGGGCAAUGAAAACAUUGGACAUGACCAUGAGUGCUUCCUUUCCUUAACUCUAGGUUUGUAGUCUGUUUUAAAUUAGGAUUAGUUCCUGCAUUCUGAAAUACAUUG	0.43
GGAAUGGUGGAUACUGUCUUCUGACUCAGGCUCUAGGCUCCAUGGCUUCCUCUCUCUGGUCCUGCCACACAGAAGGAAAGCCCUGUCCAGGAUAAUGAGCGUUGCUGACA	0.271
CAGCUGCAGACCUAAGCCCUCCCCCACCCCUGGAAAGGUCCCUCCCCAACCCAGGCCCCUGGCGUGUGUGGGUGUGCGUGCGUGUGCGUGCCGUGUUCGUGUGCAAGGGG	0.492
CUUUAGCUAUUUAGGGACCAAAGGACCAAACUUUUUAUUGCAGAUGUGUAGCUCUAUGUCAAAUAGAGGGGGAAUGGAGGACCCCCUCCUUCCUGCCUCAUGGCUGUUCU	0.455
GGCAUUUGCAAAGUCUAUUCAGUUUCCUUCCACACUCUGACCCACGGUUGUAGCGGAGUGGGCUGAACACUGUAACACUGUACAUGCGAUUUCCCCAUGGGCUUCUAAAA	0.484
CAGGGACGCAGUUGUUACGAGGUUAGACGUGGCAGCUCUGUGCAGUGUUUGAGCCUACAGUGGGAUACAUAGGGUCAAAUUGAGAAUAAUAAACUGAGUCAUUCUCCUGG	0.561
UCUCUAUUCUGUUAAUUUAAUUUUAAAUGCUUUAUCCAUUUGUGCAAAGGUAAACACAGAUUGUAUCUUUUUUAAUGGUACGGCAUAAAAAAAUAACCCUAAAGUGAAGU	0.812
UGUCACAGACAAAUAUGGGUAGUUUUGUUUAAAUAGGUAAGCAAAAUAUUAUACUUUAUAGCAGUGGAUUACCAACACCUUGACUUCUUUGUUACAGUGCUAACAUCUUU	0.25
UCCCCCUGUGUUUUCACGCAGGUCAUAUUGUCAGUCCUACAAAAAUAAAAGGCUUCCAGAGGAGAGUGGCCUGGGUCCCAGGGCUGGCCCUAGGCACUGAUAGUUGCCUU	0.419
UGUGGCCGGCACUGGGCAGCCCCUUGGACUGAGGCAGUUUUGGUGGAUGGGGGACCUCCACUGGUGACAGAGAAGACACCAGGGUUUGGGGGAUGCCUGGGACUUUCCUC	0.665
GUUGGGACUCGCUGUUGCCAUCCUCUUUGUUGUAUCUGGUUUUCAUCACUAGACUCAGCAACCCUUCUCACCUUAACUGCCACCUUCCCUACACUCUCAGUUUACAGAGG	0.378
UUCUAUUGGACCCAGAUACCCUUUACCUCUACAGCAUAGACACCAAAUGUCCCAUAGUCCUCUCACACCCUGUGUUCCAGCCUUCAGUGUUUGGACAGAGCACCACUGUC	0.573

Series 2
Target: Phosphate system positive regulatory protein PHO4, full length, GST-tagged (PHO4, Saccharomyces cerevisiae, UniProt P07270, residues 1-312)
Technique: competition protein-binding microarray
Molecule type: double-stranded DNA, one strand shown
Medium: in vitro
Tested at: 2 µM
Notes: whole 60-bp probe, lowest competitor level
With: Cbf1 competitor, 0.05 µM
Reading: higher = stronger binding
Constant ends, left off below: … GTCTTGATTCGCTTGACGCTGCTG
Target sequence (chain): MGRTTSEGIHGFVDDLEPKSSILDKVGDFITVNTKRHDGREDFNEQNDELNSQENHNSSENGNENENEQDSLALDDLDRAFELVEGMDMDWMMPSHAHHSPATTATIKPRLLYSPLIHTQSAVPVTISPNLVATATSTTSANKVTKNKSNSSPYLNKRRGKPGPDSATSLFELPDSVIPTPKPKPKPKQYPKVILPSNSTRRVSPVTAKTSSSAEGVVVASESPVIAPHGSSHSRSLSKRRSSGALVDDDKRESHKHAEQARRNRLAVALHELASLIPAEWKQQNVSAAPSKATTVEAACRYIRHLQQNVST
Oligonucleotide	fluorescence intensity [a.u.]
CTTCTGTAAATTTGCCCAGTGGGTGGACGCGCCCCG	3770
CGGGGTTAAGTTTGCACCGTGGGTGGCTTGCAGCAG	7600
TGCGCAACAACTTTTCACGTGGTTTTATGTCTAGAA	12900
CTTTCCCGATCTTGGCGCGTGGGTGTAGCACATTTG	11700
CAATTTTGTGGTCGGATCGTGCTTTTGCCACCCGCG	8140
AAAAGCAAATTTTCACACGTGAAGAAGTAAGCTGTT	11800
CATACCCAACCTTGTCACTCAACTTAAGATATTTGT	3510
TGGGTACAAAGCAGTGTCGTGCTTTTCCAAGGCATC	6350
ACAATTTCAACCATCCTCGTGTCCTTGTTGTTATCT	11000
GGACCAGCCCGGACCCATGTGCTTCCAAGTGGCCAG	11400
CAGCTTCAACCAAATAACGTGGAGGTTCAGGAACAA	8300
TCTTAAAGTGTTCGGCACGCAAGATACCACCTAGGG	6100
GACGACAACAACTGTCATGTGGAAGATAGCCAAAAT	7440
GTAACCGGTCAAAGCCATGTGAGCCATGAATAAAGA	6790
CTAACGAAGGTTTGATCGGTGGGTGACAAGCCAAGT	3620
ATGTATTACCTAACTCAGGTGATGGAGTGCTCAGAG	4630
TGCGCAACAACTTGCTTAGTGGGTGTATGTCTAGAA	4720
TGATATTCTGGCCGTCACGTCTTCTTTGTTTTCTTT	5320
AAATTACTAAGTTGCTATGTGGGTGACGCCGTATGA	4630
CTAACGAAGGTTTGGACAGTGGGTGACAAGCCAAGT	3910
TATGTGTCCAAGAGACACATGAGCCCAAAAAGGGTA	5090
ATCTAATTTTGCGACCAAGTAGTTCTTAAACAAGTC	3260
AGAGGGCATCTCAGCCATGTGTTCTCCAGCTCATTA	9230
AAGAAAGAGTTGGTCGTCGTGCCGATAACTTGAGAG	7170
AAAGACAGGACTTCGAACGTGTAGGACTTAGACCAG	8170

Series 3
Target: Interferon regulatory factor 3, full length, phosphomimetic (IRF3, Homo sapiens, UniProt Q14653, residues 1-427, S386D/S396D/S398D/S402D/T404D/S405D)
Technique: protein-binding microarray
Molecule type: double-stranded DNA, one strand shown
Medium: in vitro
Tested at: 2540 nM top
Notes: 60-bp whole probe
With: salmon DNA 0.4 mg/ml
Reference: random background probes
Reading: higher = stronger binding
Constant ends, left off below: GCCTAGCAC … GTCTTGATTCGCTTGACGCTGCTG
Construct (chain): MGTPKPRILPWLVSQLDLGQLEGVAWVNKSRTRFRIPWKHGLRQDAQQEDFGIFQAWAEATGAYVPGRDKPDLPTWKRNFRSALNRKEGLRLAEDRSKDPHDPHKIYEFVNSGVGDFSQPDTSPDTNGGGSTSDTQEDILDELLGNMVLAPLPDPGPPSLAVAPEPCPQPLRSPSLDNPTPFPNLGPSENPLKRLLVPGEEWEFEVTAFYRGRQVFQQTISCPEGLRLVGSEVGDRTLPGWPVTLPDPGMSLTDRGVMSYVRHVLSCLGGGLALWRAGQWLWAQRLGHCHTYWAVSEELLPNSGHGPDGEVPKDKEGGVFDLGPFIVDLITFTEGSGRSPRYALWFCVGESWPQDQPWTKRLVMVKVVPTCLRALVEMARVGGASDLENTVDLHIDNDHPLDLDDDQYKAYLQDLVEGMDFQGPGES
Oligonucleotide	fitted relative affinity [z-score]
GACGGACAGCTTCTCCTGACGTGCTAG	-0.596
TCACCTACAGGTTCTCTGACTGTGCTA	-0.0869
GACGGTTTCCTTATCTTGACGTGCTAG	7.37
CAAGGAACTCAGAGATTTAAGTGCTAG	-0.707
TTAGGTCTCAGTCTCGGTTAGTGCTAG	1.09
GACGGTATCGGTTTCGAGACGTGCTAG	6.83
TCCTCTTTACTGCTCCACACGTGCTAG	1.28
CAGTTTTCCTCTGTCATTTTGTGCTAG	3.2
TCAACACTAGTTTTTACACTGTGCTAG	0.0413
TTAGGACTGCTTCTCCTGTAGTGCTAG	-0.353
TTCGAACTGGGGTATCGATTAGTGCTA	-0.063
TTAGGTATCGACACTGGCTTAGTGCTA	0.143
TCATTTTTTTTTTTTTAACTGTGCTAG	1.25
GACGGTTCCGTTTTCGGGACGTGCTAG	5.43
TTTTTTTTTTTTTGGAATGTGTGCTAG	1.51
GACGGTATCGGACTGGGGCCGTGCTAG	1.22
TCTGTCCTGATAGCCCTGGCGTGCTAG	0.337
GACGGACTGGGGTATGGGGACGTGCTA	-0.831
TTAGGTCTCCTTTGCCTTTAGTGCTAG	0.978
TTAGGTTTCGGTTTCTGTTAGTGCTAG	10.6
GACGGTATCCTTCTCCTGGCGTGCTAG	7.43
GACGATATCAGTCGCGAGACGTGCTAG	-0.0403
TTAGATTTCGGGATTGGATTAGTGCTA	1.61
TCATGTCTGTGTCACAGACTGTGCTAG	0.295
TACAGGTTCTCTTTTATTTTGTGCTAG	1.68

Series 4
Target: Sal-like protein 4, full length isoform B (SALL4, Homo sapiens, UniProt Q9UJQ4-2, residues 1-616)
Technique: universal PBM
Molecule type: double-stranded DNA, one strand shown
Medium: in vitro
Tested at: not given
Notes: 8-mer, flanks averaged, mean of replicates
Reading: higher = stronger binding
Residues (chain): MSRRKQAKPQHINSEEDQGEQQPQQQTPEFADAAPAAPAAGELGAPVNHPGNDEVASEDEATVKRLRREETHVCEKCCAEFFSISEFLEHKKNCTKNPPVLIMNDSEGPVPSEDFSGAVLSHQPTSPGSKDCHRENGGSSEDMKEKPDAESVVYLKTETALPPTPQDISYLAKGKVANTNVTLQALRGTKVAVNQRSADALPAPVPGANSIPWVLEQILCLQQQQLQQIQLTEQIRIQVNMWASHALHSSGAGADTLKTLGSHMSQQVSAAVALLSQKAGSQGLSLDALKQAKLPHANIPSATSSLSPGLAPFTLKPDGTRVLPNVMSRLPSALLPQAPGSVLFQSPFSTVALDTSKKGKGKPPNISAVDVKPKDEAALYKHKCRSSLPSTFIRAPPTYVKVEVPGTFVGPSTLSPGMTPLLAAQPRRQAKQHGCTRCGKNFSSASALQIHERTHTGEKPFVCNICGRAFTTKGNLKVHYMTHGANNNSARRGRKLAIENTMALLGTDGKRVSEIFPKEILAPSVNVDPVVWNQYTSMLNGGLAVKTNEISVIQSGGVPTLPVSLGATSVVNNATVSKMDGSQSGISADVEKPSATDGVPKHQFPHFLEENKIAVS
Oligonucleotide	E-score
GCGGAGGA	-0.21
ATGCGTAA	0.251
GAGCGCCA	-0.258
TCCTTAGA	0.0316
GCAACAGC	-0.138
AACGCGCT	-0.219
AGGGGGAT	-0.0322
AAGATTCA	0.152
CCGGCAAG	-0.265
TCACACAA	0.144
TGGTTGAA	-0.0695
CTTTGCAC	0.0129
AGCAACCA	-0.0231
ACCGGGAG	-0.233
CACCGTCG	-0.233
CCATTAGC	0.00893
CGACTTAC	-0.0929
CCGCTACC	-0.244
CAGGATTC	0.0721
AAAATCCA	0.185
GCCTATGA	0.0905
CTAGGCCC	-0.3
GGCCGCAC	-0.226
CGGACCGC	-0.358
GGACTGGA	-0.129

Series 5
Target: Histone acetyltransferase KAT6A, winged helix 2, GST fusion (KAT6A, Homo sapiens, UniProt Q92794, residues 85-181)
Technique: protein binding microarray
Molecule type: double-stranded DNA, one strand shown
Medium: in vitro
Tested at: not given
Notes: 8-mer, flanks averaged, mean of 2 arrays, mostly near background
Reference: not given
Reading: higher = stronger binding
Residues (chain): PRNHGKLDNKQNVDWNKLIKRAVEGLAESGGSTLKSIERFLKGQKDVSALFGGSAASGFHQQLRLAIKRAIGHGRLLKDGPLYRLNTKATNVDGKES
Oligonucleotide	E-score
AGCCGCTA	0.0511
CCATTCTC	-0.0869
CCGTTACA	0.0115
CACCTCAG	-0.109
CGCAAAGA	0.0435
GTTTTGCA	-0.0196
AATGTTCG	-0.0593
CCTCCCCC	-0.0446
ATCCATTC	0.0231
CGGGGTTC	0.0107
GCTCCTAA	-0.039
GAAGAAGC	-0.0229
CCGCGGGC	0.0198
ACGAATTA	0.0184
CTTGTCTA	-0.112
AATCCCAA	-0.0981
CAATAAAG	0.0515
TACAATAA	-0.0862
GGGCGTTA	0.103
TTAGTAAA	0.15

Repeated from above (series 3):
Oligonucleotide	fitted relative affinity [z-score]
GACGGTATCGGACTGGGGCCGTGCTAG	1.22
TTAGGTATCGACACTGGCTTAGTGCTA	0.143
TCTGTCCTGATAGCCCTGGCGTGCTAG	0.337
TCATTTTTTTTTTTTTAACTGTGCTAG	1.25
TTAGGTTTCGGTTTCTGTTAGTGCTAG	10.6
GACGGACTGGGGTATGGGGACGTGCTA	-0.831
GACGGTATCCTTCTCCTGGCGTGCTAG	7.43
GACGGACAGCTTCTCCTGACGTGCTAG	-0.596
GACGATATCAGTCGCGAGACGTGCTAG	-0.0403
TTAGGTCTCAGTCTCGGTTAGTGCTAG	1.09
TCACCTACAGGTTCTCTGACTGTGCTA	-0.0869
TTAGGTCTCCTTTGCCTTTAGTGCTAG	0.978
TTAGGACTGCTTCTCCTGTAGTGCTAG	-0.353
